Experimental data pooled from the literature.
Lines come from different studies, so protocols differ. Values joined by “and” are separate records of one study, mostly repeats; a detail may differ. Numbers after ± are the reported error.
Fibroblast growth factor 2 with pentraxin 3: Fibroblast growth factor 2, with pentraxin 3 (Homo sapiens, UniProt P09038)
CASP4: Caspase-4 (CASP4, Homo sapiens, UniProt P49662)
ESR1: Estrogen receptor (ESR1, Homo sapiens, UniProt P03372)
T1: FMN riboswitch G8A/G9A/G74A/G96A (Lactobacillus plantarum); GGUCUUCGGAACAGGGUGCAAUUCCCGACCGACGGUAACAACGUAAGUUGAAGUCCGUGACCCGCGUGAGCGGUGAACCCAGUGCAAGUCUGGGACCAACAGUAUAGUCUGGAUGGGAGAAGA

`Ac-ARPMA-NH2 (N-acetyl, C-amide)` has an ID50 of over 3000 µM (Fibroblast growth factor 2 with pentraxin 3; binding to PTX3, competitor, surface plasmon resonance; peptide; together with: 150 nM free FGF2).
The koff of `CC[C@H](C)[C@H](NC(=O)[C@H](CCCCN)NC(=O)[C@H](CC(C)C)NC(=O)[C@H](CC(C)C)NC(=O)[C@@H]1CCCN1C(=O)[C@H](CC(C)C)NC(=O)[C@H](CCCCN)NC(=O)[C@@H]1CCCN1C(=O)[C@H](CCCNC(=N)N)NC(=O)[C@@H](NC(=O)[C@H](CCC(N)=O)NC(=O)[C@H](CC(N)=O)NC(C)=O)C(C)C)C(=O)N[C@@H](CC(C)C)C(=O)N[C@@H](Cc1c[nH]cn1)C(=O)N[C@@H](C)C(=O)N[C@@H](C)C(=O)NCC(=O)N[C@@H](C)C(=O)N[C@@H](CCC(N)=O)C(=O)N[C@@H](Cc1ccc(O)cc1)C(N)=O` is reported as 30 ± 10 s⁻¹ (Protein S100-B (Homo sapiens, UniProt P04271); binding, NMR line shape, Kd from ITC; 35 °C, low salt).
`CC(C)[C@H](NC(=O)[C@H](CCCNC(=N)N)NC(=O)[C@@H](NC(=O)[C@H](CCC(N)=O)NC(=O)[C@H](CCC(N)=O)NC(=O)[C@@H](NC(=O)[C@H](Cc1c[nH]c2ccccc12)NC(=O)[C@H]1CCCN1C(=O)[C@@H]1CCCN1C(=O)[C@H](Cc1ccccc1)NC(=O)[C@H](CO)NC(=O)CNC(=O)[C@H](CCCNC(=N)N)NC(=O)[C@H](CCCNC(=N)N)NC(=O)[C@H](CCCNC(=N)N)NC(=O)[C@H](CCCNC(=N)N)NC(=O)[C@H](CCCNC(=N)N)NC(=O)[C@@H](N)CCCNC(=N)N)C(C)C)[C@@H](C)O)C(=O)O` has a kon of 1.83e+06 M⁻¹ s⁻¹ (Disks large homolog 4, PDZ3 domain (Homo sapiens, UniProt P78352); binding, surface plasmon resonance; pH 7.5, 25 °C).
`Cc1cc(=O)oc2cc(NC(=O)[C@H](CCCNC(=N)N)NC(=O)CN)ccc12` has a kcat of 1.25 ± 0.02 s⁻¹ (dipeptidyl aminopeptidase (Parabacteroides distasonis); substrate, fluorogenic AMC; 50 nM to 100 µM).
`Oc1ccc(OCc2ccccc2)cc1` has a remaining activity of 15.1% (CASP4; 33 µM, together with: LEHD substrate; baseline: solvent control).
With `Ac-YESTNPFTAK-NH2 (N-acetyl, C-amide)` the TΔS was -6.66 kcal/mol (EHD1 EH domain, mouse; ITC; peptide; pH 7.0, 20 °C, 0 mM KCl, first titration).
With `Cc1ccc(C(=O)C2=C(O)C(=O)N(CC(C)O)C2c2cc(C(F)(F)F)cc(C(F)(F)F)c2)cc1` (centres unmarked) the complex loss was about 70% (Protein S100-A10, with annexin A2 (Homo sapiens, UniProt P60903); S100A10-annexin A2 binding, inhibitor, coimmunoprecipitation; MDA-MB-231 cell lysate; 50 µM).
The UDP-GalNAc hydrolysis of `GAGAGAGTTPGPG` is reported as 40 to 50% (Polypeptide N-acetylgalactosaminyltransferase 4 (GALNT4, Homo sapiens, UniProt Q8N4A0); substrate; peptide; concentration not given, together with: UDP-[3H]GalNAc).
`O=C(O)CC[C@H](NC(=O)N[C@@H](CCCCNC(=O)[C@H](Cc1ccc2ccccc2c1)NC(=O)[C@H]1CC[C@H](CNC(=O)CN2CCN(CC(=O)O)CCN(CC(=O)O)CCN(CC(=O)O)CC2)CC1)C(=O)O)C(=O)O` gave an internalized fraction of 15.5 ± 7.5% (FOLH1 (Homo sapiens, UniProt Q04609); LNCaP; 30 nM, 45 min, 37 °C, 177Lu-labelled; baseline: total cell-bound).
For `O=S(=O)(O)c1nc2ccccc2[nH]1`, “binding free energy” read -6.88 kcal/mol (racE (Bacillus subtilis, UniProt P94556); enzyme activity, inhibitor).
For `CC(=O)N[C@H]1C(O)O[C@H](CO)[C@H](O)[C@@H]1O` (mixture of isomers), the binding enthalpy was -11.6 kcal/mol (CLEC10A (Homo sapiens, UniProt Q8IUN9); ITC; concentration not given, pH 7.4, 298 K).
For `CN(Cc1cnc2nc(N)nc(N)c2n1)c1ccc(C(=O)N[C@@H](CCC(=O)O)C(=O)O)cc1`, the Vmax was 0.81 ± 0.14 pmol/mg protein/min (SLC19A1 (Homo sapiens, UniProt P41440, S313T); transport, substrate; K562 transfected (K500E); 180 s, 37 °C).
`NC(=O)C1=CN([C@@H]2O[C@H](COP(=O)(O)OP(=O)(O)OC[C@H]3O[C@@H](n4cnc5c(N)ncnc54)[C@H](O)[C@@H]3O)[C@@H](O)[C@H]2O)C=CC1` gave a Kd of 300 µM (NADH dehydrogenase [ubiquinone] flavoprotein 1, mitochondrial, complex I (NDUFV1, Bos taurus, UniProt P25708); binding to reduced flavin, substrate; pH 7.55, 32 °C, together with: rotenone 2.3 µM).
Under “farnesylation rate constant”, `CGLY` is recorded as 0.13 ± 0.01 s⁻¹ (Protein farnesyltransferase (Rattus norvegicus, UniProt Q02293+Q04631); substrate, stopped-flow fluorescence; peptide; pH 7.8, 25 °C, single turnover).
`Ac-ARACA-NH2 (N-acetyl, C-amide)` gave an ID50 of over 3000 µM (Fibroblast growth factor 2 with pentraxin 3; binding to PTX3, competitor, surface plasmon resonance; peptide; together with: 150 nM free FGF2).
`Nc1nc2c(ncn2[C@@H]2O[C@@H]3COP(=O)(O)O[C@H]3[C@H]2O)c(=O)[nH]1` — result for “relative maximal current”: 1 (Cnga2 (Rattus norvegicus, UniProt Q00195); ion current, agonist, inside-out patch clamp; WT channel, -50 mV; baseline: cAMP at saturation).
`Ac-GPSLNPFDEED-NH2 (N-acetyl, C-amide)` gave a Ka of 861000 M⁻¹ (EHD1 EH domain, mouse; ITC; peptide; pH 7.0, 20 °C, 0 mM KCl, first titration; higher = stronger binding).
`O=C(Nc1ccc([N+](=O)[O-])cc1Cl)c1cc(Cl)ccc1O` has a remaining activity of 11.3% (CASP4; 33 µM, together with: LEHD substrate; baseline: solvent control).
With `O=CC=O` the Km was 11.6 mM (aldehyde oxidase F10 (Pseudomonas sp. MX-058); substrate, peroxidase-coupled H2O2; pH 7.0, 30 °C, together with: O2 co-substrate).
For `O=S(=O)(O)c1cc(N=C=S)ccc1CCc1ccc(N=C=S)cc1S(=O)(=O)O`, the ID50 was 0.19 µM and 0.26 µM and 0.21 µM and 0.13 µM (SLC4A1 (Homo sapiens, UniProt P02730); chloride exchange; human red blood cells; pH 7.2, 0 °C, no chloride gradient).
Under “NAD(P)H oxidation rate”, `O=Cc1ccc(O)cc1` is recorded as “no effect” (Enoyl-ACP reductase (Thermus thermophilus, UniProt P83818); enzyme activity, substrate, steady-state turnover).
For `O=c1[nH]c(=O)c2nc3ccccc3nc2[nH]1`, the Kd was 3.17 µM (T1, FMN riboswitch G8A/G9A/G74A/G96A (Lactobacillus plantarum); ITC; pH 7.5, 25 °C, NaCl 100 mM).
With `Nc1ncnc2c1ncn2[C@@H]1O[C@H](COP(=O)(O)O)[C@@H](O)[C@H]1O.O` the remaining activity was 20.9% (CASP4; enzyme activity; 33 µM, together with: LEHD substrate; baseline: solvent control).
`CN(C)CCOc1ccc([C@H]2C[C@]3(C)[C@@H](O)CC[C@H]3[C@@H]3CCc4cc(O)ccc4[C@H]32)cc1`: “relative binding affinity” 26 to 39% (Estrogen receptor, ligand-binding domain (ESR1, Homo sapiens, UniProt P03372); radioligand competition; concentration not given, overnight, room temperature, ligand-binding domain, together with: [3H]estradiol; baseline: estradiol).
`O=S(=O)(Nc1ccc(Cl)cc1)C1CC2OC1C(c1ccc(O)cc1)=C2c1ccc(O)cc1` (centres unmarked) gave an efficacy of 65 ± 3% (ESR1; reporter gene, antagonist; HepG2; together with: estradiol 10 nM; baseline: E2 response, negative is inverse agonism).
Under “lowest inhibitory concentration”, `O=Cc1ccc(O)cc1` is recorded as at least 1 µM (UGT (rat); 4-MU glucuronidation, inhibitor; rat liver microsomes).
For `CCC(CC)CSc1nc2c([nH]1)c(=S)n(C)c(=O)n2C`, the remaining activity was 96% (Androgen receptor (AR, Homo sapiens, UniProt P10275); reporter gene, antagonist, PSA-luciferase; HeLa-A6; 10 µM, 24 h, together with: 5 nM dihydrotestosterone; baseline: maximal activity).
`ASLDELQREIEQLEELNYALQKEIEDLQKQGAP` gave a binding stoichiometry of 1.05 ± 0.01 (Transcription factor Jun (Homo sapiens, UniProt P05412, S292Y); isothermal titration calorimetry; peptide; concentration not given, pH 7, 20 °C).
`CCN(c1ccc(Cl)cc1)S(=O)(=O)C1CC2OC1C(c1ccc(O)cc1)=C2c1ccc(O)cc1` (centres unmarked) has an efficacy of 7 ± 1% (ESR1; reporter gene, antagonist; HepG2; together with: estradiol 10 nM; baseline: E2 response, negative is inverse agonism).
`CC[C@@H](C)[C@@H](NC(=O)[C@@H](NC(=O)[C@@H](N)C(C)C)C(C)C)C(=O)N[C@@H](C)C(N)=O` has an inhibition of 49.6% (APP (Homo sapiens, UniProt P05067); amyloid aggregation, inhibitor, fluorescence; 2 µM, 24 h).
`CCn1c2ccccc2c2cc(NC(=O)c3ccccc3-c3ccccc3C(=O)O)ccc21` — result for “change in inhibition with detergent”: “no effect” (galE (Trypanosoma brucei, UniProt Q8T8E9); enzyme activity, inhibitor, HPAEC; 30 µM, together with: UDP-galactose substrate, 0.06% n-octylglucopyranoside).
`Cc1ccccc1-c1ccc(C(=O)N2CC3(C)CC2CC(C)(C)C3)cc1` (centres unmarked) — result for “radiotracer uptake reduction”: 14% (Vasopressin V1a receptor (Mus musculus, UniProt Q62463); blocker; CD-1 mouse, rest of brain; subcutaneous, 3 mg/kg, 60 min).

For quick reference, copied from above:
For `CN(Cc1cnc2nc(N)nc(N)c2n1)c1ccc(C(=O)N[C@@H](CCC(=O)O)C(=O)O)cc1`, the Vmax was 0.81 ± 0.14 pmol/mg protein/min (SLC19A1 (Homo sapiens, UniProt P41440, S313T); transport, substrate; K562 transfected (K500E); 180 s, 37 °C).
`NC(=O)C1=CN([C@@H]2O[C@H](COP(=O)(O)OP(=O)(O)OC[C@H]3O[C@@H](n4cnc5c(N)ncnc54)[C@H](O)[C@@H]3O)[C@@H](O)[C@H]2O)C=CC1` gave a Kd of 300 µM (NADH dehydrogenase [ubiquinone] flavoprotein 1, mitochondrial, complex I (NDUFV1, Bos taurus, UniProt P25708); binding to reduced flavin, substrate; pH 7.55, 32 °C, together with: rotenone 2.3 µM).
Under “farnesylation rate constant”, `CGLY` is recorded as 0.13 ± 0.01 s⁻¹ (Protein farnesyltransferase (Rattus norvegicus, UniProt Q02293+Q04631); substrate, stopped-flow fluorescence; peptide; pH 7.8, 25 °C, single turnover).
